Measurements gathered from unrelated publications.
Each numbered part is a random draw from the data of one study; scales do not carry over between parts.

Study 1 — method: competition protein-binding microarray; molecule type: double-stranded DNA, one strand shown; sample: in vitro; tested at: 2 µM; together with: Cbf1 competitor, 0.05 µM; reading: higher = stronger binding; constant ends, left off below: … GTCTTGATTCGCTTGACGCTGCTG
Target: Phosphate system positive regulatory protein PHO4, full length, GST-tagged (PHO4, Saccharomyces cerevisiae, UniProt P07270, residues 1-312)
Notes: whole 60-bp probe, lowest competitor level
Construct (chain): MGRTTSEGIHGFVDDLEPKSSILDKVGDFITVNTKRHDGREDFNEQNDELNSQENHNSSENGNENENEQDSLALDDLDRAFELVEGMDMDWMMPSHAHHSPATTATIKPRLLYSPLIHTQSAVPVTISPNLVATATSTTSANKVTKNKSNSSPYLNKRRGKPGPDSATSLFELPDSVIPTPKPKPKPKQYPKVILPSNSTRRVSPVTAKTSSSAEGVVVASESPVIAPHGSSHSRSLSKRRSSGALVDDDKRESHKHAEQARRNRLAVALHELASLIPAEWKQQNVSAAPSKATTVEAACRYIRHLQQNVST
| Sequence | fluorescence intensity |
| --- | --- |
| AAATTACTAAGTTGCGGTGTGGGTGACGCCGTATGA | 4960 a.u. |
| GCAGGGAGCGTCCAACACGTCAGCGTCAATTCCTTC | 3890 a.u. |
| GTCTTGTCTCATTGAAAAGTGGGTGTCCCCACTTCA | 4090 a.u. |
| CATACCCAACCTTGATACGTGGGTGAAGATATTTGT | 7730 a.u. |
| TTGTAATGCTTTCGTCTCGTGCCAGGCCTGCGCTAA | 7670 a.u. |
| CCTTCTCCCTGCATACACATGATAACCATCTACACC | 8360 a.u. |

Study 2 — method: RNA Bind-n-Seq; molecule type: RNA; sample: in vitro; tested at: 365 nM; reference: no-protein control; reading: higher = stronger binding
Target: RNA binding protein fox-1 homolog 2, RRM domain, GST-SBP tag (RBFOX2, Homo sapiens, UniProt O43251-10, residues 100-194)
Notes: natural RNA segment, single round, ends assumed
Constant ends, left off below: GGGAGUUCUACAGUCCGACGAUC … UGGAAUUCUCGGGUGCCAA
Residues (chain): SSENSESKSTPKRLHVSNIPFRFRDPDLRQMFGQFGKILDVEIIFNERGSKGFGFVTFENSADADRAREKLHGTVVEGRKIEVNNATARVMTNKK
| Sequence | RBNS enrichment (R) |
| --- | --- |
| CCUUUUGUACUCAGUAUCUGUCUUCCAGAAACCUCACCUGCCUUCUCUCUCAUGUGGUCUCUUAAUCCAGUAAUUGUAUUACUGCCAUUAAAGGAUGCAGUUAUUUUAAA | 0.294 |
| CUCUUUUGUGGAUGGCUUCAAGUAACAUCUAUUUCCAUUGAUCCUAGGUUCUUACUGACUGCUUUCUCCAGCUGUUCACAGCAGAUGCUUGGAUUUUAUGCAGUAGGCUU | 0.419 |
| CACUGACUUAAAAAUUUUAAUUUCUAUAGUUAAGAUUUACAACAUAAUAUAGAGUGAAAGUUAACAUACUAACAUUUCUCCUUUGGAGGAAGUUUUAAUCCACUUCAGGA | 0.426 |
| GUCCUUAACUGGAAAGUGACCCUCUUCUACCCCUGGAGUCCAUCUGGACAGAGCCAGCCUGAGGCCCACGGGCAGCUGCCUGUUUGCAUGCCUGGGAAGAGGUCCUCAGU | 2.18 |
| UGUGUUCUCUAAUCAAUAGUGGUUUAGCUUUCUUUUCUAUUUCACUCGUUUCUAGGGUUUUUUAUUUGCAGUUUAGGAACUAUUAGGAAUGUCAGGACUUUAUCAGCAGG | 1.83 |
| GCUUUUGCCAAGCCUCCCAUCCUGAGCUCUAAAUGGAAGGCCUUUCUAUGGGGUAGCUAAGUUUGGGAAGCCUAUGAACUGUGGGUCCUGCCAAGGUUCUCAAAGCACUU | 0.26 |

Study 3 — method: protein binding microarray; molecule type: double-stranded DNA, one strand shown; sample: in vitro; tested at: not given; reference: not given; reading: higher = stronger binding
Target: Histone acetyltransferase KAT6A, winged helix 1, GST fusion (KAT6A, Homo sapiens, UniProt Q92794, residues 1-85)
Notes: 8-mer, flanks averaged, mean of 2 arrays, mostly near background
Construct (chain): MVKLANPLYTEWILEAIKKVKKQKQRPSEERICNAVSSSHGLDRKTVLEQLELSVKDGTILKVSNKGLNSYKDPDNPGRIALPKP
| Sequence | E-score |
| --- | --- |
| ACGAGCAG | -0.11 |
| ATCCAGGG | -0.0571 |
| ACTTACCC | 0.0534 |
| ATAATGGC | 0.0702 |
| GGTCCTAC | -0.0226 |
| ATCTCCGA | 0.0343 |
| CCCCACGG | 0.205 |

Single results of other studies
| Substance | target | assay | test system | conditions | scale | quantity | result |
| --- | --- | --- | --- | --- | --- | --- | --- |
| PhoQ, residues 284 288 289 292 302 303 SSTLLI | PhoP, residues 12 14 15 18 19 YHFSH (Escherichia coli, UniProt P23836) | Sort-seq, measured: YFP reporter | E. coli | PhoQ-PhoP variant library, together with: 10 µM Mg2+ | reference: high Mg2+ state, higher = stronger signaling | fold induction | 1.88 |
